Results pooled from the literature.
A part holds a random share of what one study measured.
Sequence of UniProt Q16539 (whole entry, looked up): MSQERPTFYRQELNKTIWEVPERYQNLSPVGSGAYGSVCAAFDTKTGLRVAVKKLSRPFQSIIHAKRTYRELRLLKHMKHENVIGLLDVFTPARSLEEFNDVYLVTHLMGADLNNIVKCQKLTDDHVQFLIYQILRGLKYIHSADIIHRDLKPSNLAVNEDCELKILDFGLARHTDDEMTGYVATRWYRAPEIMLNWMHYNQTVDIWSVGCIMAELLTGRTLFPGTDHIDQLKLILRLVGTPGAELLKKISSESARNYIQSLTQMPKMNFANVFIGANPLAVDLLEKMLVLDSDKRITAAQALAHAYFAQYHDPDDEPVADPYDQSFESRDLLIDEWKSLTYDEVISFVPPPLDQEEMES
Sequence of UniProt Q9HBH9 (whole entry, looked up): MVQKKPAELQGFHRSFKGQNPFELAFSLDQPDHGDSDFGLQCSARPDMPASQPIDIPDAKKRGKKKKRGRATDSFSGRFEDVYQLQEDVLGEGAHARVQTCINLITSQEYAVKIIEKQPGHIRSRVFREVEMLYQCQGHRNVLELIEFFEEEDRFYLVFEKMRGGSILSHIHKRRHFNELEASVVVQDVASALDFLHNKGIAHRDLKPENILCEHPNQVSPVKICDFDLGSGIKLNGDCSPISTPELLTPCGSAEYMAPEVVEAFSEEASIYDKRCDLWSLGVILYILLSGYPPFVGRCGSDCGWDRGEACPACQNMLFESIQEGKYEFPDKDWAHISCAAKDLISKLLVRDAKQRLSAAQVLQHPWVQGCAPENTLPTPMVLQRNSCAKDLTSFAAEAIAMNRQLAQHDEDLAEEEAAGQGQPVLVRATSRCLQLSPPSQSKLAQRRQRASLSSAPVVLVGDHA
Sequence of UniProt Q9BUB5 (whole entry, looked up): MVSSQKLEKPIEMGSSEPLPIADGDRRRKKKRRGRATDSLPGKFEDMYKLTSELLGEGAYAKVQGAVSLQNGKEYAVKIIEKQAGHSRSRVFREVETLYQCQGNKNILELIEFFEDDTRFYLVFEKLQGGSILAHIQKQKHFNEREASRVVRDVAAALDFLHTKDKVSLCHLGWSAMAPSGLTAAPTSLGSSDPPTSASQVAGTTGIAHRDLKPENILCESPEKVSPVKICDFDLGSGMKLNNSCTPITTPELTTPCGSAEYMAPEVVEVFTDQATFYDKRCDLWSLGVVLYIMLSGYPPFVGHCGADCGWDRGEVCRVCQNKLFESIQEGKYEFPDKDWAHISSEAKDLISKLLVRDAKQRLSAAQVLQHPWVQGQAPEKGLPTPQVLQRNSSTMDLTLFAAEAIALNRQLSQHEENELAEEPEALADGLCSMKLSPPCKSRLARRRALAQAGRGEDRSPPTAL
Sequence of UniProt Q15349 (whole entry, looked up): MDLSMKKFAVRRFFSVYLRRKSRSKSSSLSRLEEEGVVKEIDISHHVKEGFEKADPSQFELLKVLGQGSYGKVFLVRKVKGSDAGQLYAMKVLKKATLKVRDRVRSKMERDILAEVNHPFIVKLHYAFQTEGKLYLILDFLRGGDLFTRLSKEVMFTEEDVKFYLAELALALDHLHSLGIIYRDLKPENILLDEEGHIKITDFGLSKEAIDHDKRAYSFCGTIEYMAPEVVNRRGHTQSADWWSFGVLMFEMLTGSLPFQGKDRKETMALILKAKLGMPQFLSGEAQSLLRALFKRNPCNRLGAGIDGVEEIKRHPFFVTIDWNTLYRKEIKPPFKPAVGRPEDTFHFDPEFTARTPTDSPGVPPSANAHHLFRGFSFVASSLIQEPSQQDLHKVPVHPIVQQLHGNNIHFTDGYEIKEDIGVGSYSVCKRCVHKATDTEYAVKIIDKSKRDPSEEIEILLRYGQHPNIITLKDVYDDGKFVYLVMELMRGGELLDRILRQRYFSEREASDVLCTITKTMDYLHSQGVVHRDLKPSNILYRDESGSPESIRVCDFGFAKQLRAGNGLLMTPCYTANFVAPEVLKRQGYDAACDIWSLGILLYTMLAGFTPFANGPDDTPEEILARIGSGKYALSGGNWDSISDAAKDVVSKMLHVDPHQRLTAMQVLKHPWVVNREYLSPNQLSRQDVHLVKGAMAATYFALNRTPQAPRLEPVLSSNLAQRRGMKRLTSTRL
Sequence of UniProt P36897 (whole entry, looked up): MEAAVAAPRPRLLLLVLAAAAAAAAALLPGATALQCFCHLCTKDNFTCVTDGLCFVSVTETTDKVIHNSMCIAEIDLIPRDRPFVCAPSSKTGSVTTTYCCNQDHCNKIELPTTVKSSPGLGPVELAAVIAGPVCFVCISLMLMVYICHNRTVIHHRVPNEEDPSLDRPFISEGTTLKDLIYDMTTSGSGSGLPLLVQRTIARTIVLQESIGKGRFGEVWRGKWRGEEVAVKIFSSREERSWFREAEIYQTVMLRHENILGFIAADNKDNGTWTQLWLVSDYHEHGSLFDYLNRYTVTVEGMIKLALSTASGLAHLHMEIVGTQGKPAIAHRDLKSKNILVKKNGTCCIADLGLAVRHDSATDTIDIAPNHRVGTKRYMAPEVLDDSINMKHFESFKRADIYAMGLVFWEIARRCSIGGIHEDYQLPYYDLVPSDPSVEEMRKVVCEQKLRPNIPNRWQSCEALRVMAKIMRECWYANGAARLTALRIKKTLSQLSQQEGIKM

Sample 1
Target: Tyrosine-protein kinase CSK (CSK, Homo sapiens, UniProt P41240)
Sequence of UniProt P41240 (whole entry, looked up): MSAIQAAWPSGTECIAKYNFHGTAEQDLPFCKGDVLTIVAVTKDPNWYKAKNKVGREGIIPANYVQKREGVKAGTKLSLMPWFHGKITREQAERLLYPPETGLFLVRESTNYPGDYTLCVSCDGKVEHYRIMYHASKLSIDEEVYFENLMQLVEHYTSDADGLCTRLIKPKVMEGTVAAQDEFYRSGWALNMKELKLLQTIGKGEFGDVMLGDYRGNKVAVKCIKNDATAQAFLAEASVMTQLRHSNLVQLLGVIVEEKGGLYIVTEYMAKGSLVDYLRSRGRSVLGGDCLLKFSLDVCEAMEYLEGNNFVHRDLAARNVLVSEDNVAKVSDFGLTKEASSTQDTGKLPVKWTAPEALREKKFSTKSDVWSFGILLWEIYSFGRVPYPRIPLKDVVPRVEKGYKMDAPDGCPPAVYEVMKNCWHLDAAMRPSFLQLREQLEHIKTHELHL
Observed: enzyme activity
Action: inhibitor
Concentration: 0.5 µM
Reference: control
| SMILES | remaining activity |
| --- | --- |
| COc1cc(Nc2c(C#N)cnc3cc(OCCCN4CCN(C)CC4)c(OC)cc23)c(Cl)cc1Cl | 12.3% |
| Nc1nccc(-c2c(-c3ccc(F)cc3)ncn2C2CCNCC2)n1 | 90.8% |
| CCc1[nH]c(-c2ccc(OC)cc2)nc1-c1ccncc1 | 101% |
| CC(C)(C)n1nc(Cc2cccc3ccccc23)c2c(N)ncnc21 | 46.1% |
| O=S(=O)(NCCNC/C=C/c1ccc(Br)cc1)c1cccc2cnccc12 | 95.6% |
| CC#CC(=O)Nc1cc2c(Nc3ccc(F)c(Cl)c3)ncnc2cn1 | 100% |
| Nc1ncnc2c1cnn2-c1ccccc1 | 86.8% |
| Nc1nc(Nc2ccc(S(N)(=O)=O)cc2)nn1C(=O)c1c(F)cccc1F | 88.9% |
| CC[n+]1c(/C=C/N(C)c2ccccc2)n(-c2ccccc2)c2ccc(-c3nc4ccccc4s3)cc21 | 100% |
| NC(=O)c1ccc(N(C(N)=O)c2c(F)cccc2F)nc1-c1ccc(F)cc1F | 90% |
| CC(=O)c1ccc(N2CCOCC2)cc1O | 99.1% |
| Cc1cc(Nc2nc(-c3ccccc3)nc3ccccc23)n[nH]1 | 98.4% |
| N#CC(=C(N)Sc1ccc(N)cc1)c1ccccc1C(F)(F)F | 90.9% |
| O=C1NC(=O)C(c2c[nH]c3ccccc23)=C1c1c[nH]c2ccccc12 | 103% |
| O=C1Cc2c([nH]c3ccc([N+](=O)[O-])cc23)-c2ccccc2N1 | 96.6% |
| CSc1nc(-c2ccnc(N[C@@H](C)c3ccccc3)c2)c(-c2ccc(F)cc2)[nH]1 (racemic) | 82.4% |
| Oc1ccc(Nc2nc(-c3ccc(Cl)cc3)cs2)cc1 | 101% |
| CCCC(=O)Oc1ccc2[nH]c(C(=O)c3cc4ccccc4[nH]3)cc2c1 | 83.5% |

Sample 2
Cell line: mouse MPNST tumor cells
Method: high-content immunofluorescence imaging
Refers to: nuclear SOX9
Concentration: 10 µM
Time: 12 h
Notes: mean of 2 replicates
Reference: DMSO control
Reading: higher = more nuclear SOX9
| Structure (SMILES) | nuclear SOX9 intensity |
| --- | --- |
| N#Cc1c(-c2ccccc2)cc(-c2cc(Br)ccc2O)[nH]c1=O | 101 % of DMSO |
| CCOC(=O)Nc1ccc2c(c1)N(C(=O)CCN1CCOCC1)c1ccccc1S2 | 86.2 % of DMSO |
| O=C(NCc1ccco1)c1ccc2c(c1)N(Cc1c(F)cccc1Cl)C(=O)CS2 | 88.5 % of DMSO |
| N[C@H](C(=O)O)[C@H](OCc1ccccc1)C(=O)O (racemic) | 99.2 % of DMSO |
| CC1CS(=O)(=O)CCN1/N=C/c1ccc([N+](=O)[O-])o1 (stereo not drawn) | 98.9 % of DMSO |
| CN1CCN(C(=O)c2nc3ccc(Cl)cc3[nH]2)CC1 | 115 % of DMSO |
| O=C(O)c1ccccc1Nc1cccc(C(F)(F)F)c1 | 108 % of DMSO |
| CC(C)(C)c1ccc(NC(=O)N2CCN(c3ncccc3Cl)CC2)cc1 | 191 % of DMSO |
| COc1ccc(N2CCN(C(=O)c3cc4c(s3)-c3ccccc3S(=O)(=O)C4)CC2)cc1 | 108 % of DMSO |
| N#Cc1cc(NC(=O)C(=O)O)c(Cl)c(NC(=O)C(=O)O)c1 | 89.5 % of DMSO |
| CC[C@H]1Cn2nc(-c3ccc(Cl)cc3Cl)c3nc(C)cc(c32)N1CC1CC1 | 134 % of DMSO |
| CN1CCN(c2c(F)cc3c(=O)c(C(=O)O)cn(CCF)c3c2F)CC1 | 96.6 % of DMSO |
| O=C(COc1cccc2c(=O)[nH]ccc12)c1ccccc1 | 116 % of DMSO |
| CCCN(CCC)CCc1cccc2c1CC(=O)N2 | 104 % of DMSO |
| NC(=O)c1cn(Cc2c(F)cccc2F)nn1 | 86.9 % of DMSO |
| COc1cc2ncn(-c3cc(OCc4ccccc4S(C)(=O)=O)c(C#N)s3)c2cc1OC | 100 % of DMSO |

Sample 3
Organism: Sarcocystis neurona
Observed: parasite growth
Concentration: concentration not given
Notes: secondary screen
| SMILES | inhibition [%] |
| --- | --- |
| Cl.O.O=C1N(c2ccccc2)c2ccccc2C1(Cc1ccncc1)Cc1ccncc1 | -23.4 |
| CCOC(=O)c1ccc(OC(=O)CCCCCN=C(N)N)cc1.CS(=O)(=O)O | -21.2 |
| Cl.NC(N)=NC(=O)c1nc(Cl)c(N)nc1N.O | -18.9 |
| C[C@H](N[C@@H](CCc1ccccc1)C(=O)O)C(=O)N1CCC[C@H]1C(=O)O | -6.7 |
| CC(N/C(=N\C#N)Nc1ccncc1)C(C)(C)C.O (stereo not drawn) | -11.2 |
| CC1=C(C(=O)O)N2C(=O)[C@@H](NC(=O)[C@H](N)c3ccccc3)[C@H]2SC1.O | -16.1 |
| Cc1cccc(CCN2CCC(C(=O)c3ccc(NS(C)(=O)=O)cc3)CC2)n1.Cl.Cl | -9.2 |
| CC[C@@H](CO)NCCN[C@@H](CC)CO | -25.1 |
| CN(CCOc1ccc(CC2SC(=O)NC2=O)cc1)c1ccccn1.Cl (stereo not drawn) | 0.24 |
| O=C(N[C@H](CO)[C@H](O)c1ccc([N+](=O)[O-])cc1)C(Cl)Cl | -6.8 |
| CC(Cc1ccccc1)(NC(=O)CN)c1ccccc1.Cl (stereo not drawn) | 0.6 |
| CCN(CC)C(=O)C1(c2ccccc2)CC1CN.Cl (stereo not drawn) | -27.6 |
| CN1CCC(=C2c3ccccc3CCc3sccc32)CC1.O=C(O)/C=C\C(=O)O | -24.8 |

Sample 4
SMILES: O=C(O)[C@@H]1[C@@H](Cn2nnc3ccccc3c2=O)CC[C@H]1C(=O)c1ccc(OCCC2CCOCC2)cc1
Observed: cell-free assay
Method: competition with immobilised ligand
Concentration: 1 µM
| target | remaining binding [%] |
| --- | --- |
| TGF-beta receptor type-1 (TGFBR1, Homo sapiens, UniProt P36897) | 100 |
| Serine/threonine-protein kinase TAO2 (TAOK2, Homo sapiens, UniProt Q9UL54) | 76 |
| MAP kinase-interacting serine/threonine-protein kinase 1 (MKNK1, Homo sapiens, UniProt Q9BUB5) | 93 |
| Mitogen-activated protein kinase 14 (MAPK14, Homo sapiens, UniProt Q16539) | 89 |
| Hepatocyte growth factor receptor (MET, Homo sapiens, UniProt P08581, Y1235D) | 98 |
| Tyrosine-protein kinase ABL1, phosphorylated (ABL1, Homo sapiens, UniProt P00519, Y253F) | 100 |
| MAP kinase-interacting serine/threonine-protein kinase 2 (MKNK2, Homo sapiens, UniProt Q9HBH9) | 99 |
| Ribosomal protein S6 kinase alpha-2, N-terminal kinase domain (RPS6KA2, Homo sapiens, UniProt Q15349) | 96 |
| Serine/threonine-protein kinase WNK4 (WNK4, Homo sapiens, UniProt Q96J92) | 75 |
| Receptor-type tyrosine-protein kinase FLT3 (FLT3, Homo sapiens, UniProt P36888, ITD) | 100 |

For quick reference, copied from above (sample 1):
| SMILES | remaining activity |
| --- | --- |
| CCCC(=O)Oc1ccc2[nH]c(C(=O)c3cc4ccccc4[nH]3)cc2c1 | 83.5% |
| CCc1[nH]c(-c2ccc(OC)cc2)nc1-c1ccncc1 | 101% |
| CSc1nc(-c2ccnc(N[C@@H](C)c3ccccc3)c2)c(-c2ccc(F)cc2)[nH]1 (racemic) | 82.4% |
| O=C1Cc2c([nH]c3ccc([N+](=O)[O-])cc23)-c2ccccc2N1 | 96.6% |
| Nc1ncnc2c1cnn2-c1ccccc1 | 86.8% |
